Assay results gathered from unrelated publications.
Lines come from different studies, so protocols differ.

SMILES | test | system | setting | scale | measurement | result
C=C(NC(=O)c1csc(-c2nc3c(cc2O)-c2nc(cs2)C(=O)NC(C(C)O)C(=O)NC(=C(C)OC)c2nc(cs2)C(=O)NC2c4nc(cs4)C(=O)NC(COC(=O)c4c5c6c(cccc6n4O)COC(=O)C(OC4CC(C)(O)C(N(C)C)C(C)O4)C2OC5)c2nc-3cs2)n1)C(N)=O (centres unmarked) |  | ICR mice, Streptococcus pneumoniae ATCC 49169 infected, immunocompromised, blood | intravenous, 16 mg/kg/day three times daily |  | MRT(0-t) | 8.32 h
CCCCCCCOc1ccc(CC[C@](N)(CO)COP(=O)(O)O)cc1C(F)(F)F |  | healthy male humans, plasma | 0.25 mg amiselimod, day 1, mean |  | AUCtau | 10.9 ng·h/mL
Cc1ccc(-c2ccc([C@H]3[C@@H](F)[C@@H](F)C[C@@H](F)[C@H]3F)cc2)cn1 | liver microsome stability | rat liver microsomes | 1 µM |  | hepatic clearance | 32 mL/min/kg
CC(C)(C)C(=O)Nc1ccc2[nH]c(CN3CCC(N(CCCN4CCOCC4)CC4OC(n5cnc6c(N)ncnc65)C(O)C4O)CC3)nc2c1 (centres unmarked) |  | male Sprague-Dawley rat, plasma | intraperitoneal, 20 mg/kg, 4.98 min |  | concentration | 1720 ng/mL
C=C[C@]1(C)C[C@@H](OC(=O)CSc2ccc(NC(=O)c3ccco3)cc2)[C@]2(C)[C@H](C)CC[C@]3(CCC(=O)[C@H]32)[C@@H](C)[C@@H]1O |  | M. gallisepticum-infected chickens, plasma | intramuscular, 80 mg/kg single dose |  | AUC(0-24 h) | 18600 ng·h/mL
c1cc(C2CCCCC2)ccc1-c1cnc(N2CCOCC2)nc1 | liver microsome stability | cynomolgus liver microsomes | 1 µM |  | hepatic clearance | 32 mL/min/kg
C=Cc1ccccc1[B-]12OC(=O)C(c3ccccc3)=N[N+]1=C(CC)c1ccc(N(CC)CC)cc1O2 (centres unmarked) |  | toluene |  |  | fluorescence lifetime | 2.58 ns
COC(=O)[C@@]1(C)C=C(C(=O)Nc2cccc(C(=O)Nc3ccc(Nc4nccc(-c5cccnc5)n4)c(C)c3)c2)C(=O)CC1 | metabolic stability | Wistar rat, male, primary hepatocytes | 1 µM, 20 min |  | compound remaining | 38.4%
CN(C)C(=O)CNC(=O)c1ccc([C@H]2[C@@H](F)[C@@H](F)C[C@@H](F)[C@H]2F)cc1 | liver microsome stability | human liver microsomes | 1 µM, without NADPH |  | hepatic clearance | 3.9 mL/min/kg
COc1cnc2cccc(N3CCc4c(cc(Cn5ccnc5)cc4-c4cn(C)nc4C(F)(F)F)C3=O)c2c1 |  | CD-1 mouse, male, plasma | oral, 50 mg/kg |  | AUC extrapolated | 0.1%
CN1CCC(c2ccc(-c3ccc([C@H]4[C@@H](F)[C@@H](F)C[C@@H](F)[C@H]4F)cc3)cn2)CC1 | hepatocyte stability | cryopreserved mouse hepatocytes | 1 µM |  | hepatic clearance | 45 mL/min/kg
C=CC(=O)Nc1cc(Nc2nccc(-c3cn(C)c4ccccc34)n2)c(OC)cc1N(C)CCNC |  | human, plasma | 270 ng/mL, 30 d, -80 °C, high QC level |  | remaining compound | 101%
O=C(Nc1cnccc1-c1ccc([18F])cc1)c1ccnc(NC(=O)C2CC2)c1 | ex vivo biodistribution, gamma counting | transgenic mouse, GSK-3β overexpressing, early stage, right kidney | intravenous, 120 min |  | SUV | 0.25
O=C(Nc1ccc([C@H]2[C@@H](F)[C@@H](F)C[C@@H](F)[C@H]2F)cc1)C1(N2CCOCC2)CC1 | liver microsome stability | human liver microsomes | 1 µM, without NADPH |  | hepatic clearance | 3.9 mL/min/kg
C/C(N)=N/C(=N\S(=O)(=O)c1ccc(C(F)(F)F)cc1)N1C[C@H](c2ccccc2)C(c2ccc(Cl)cc2)=N1 |  | male Sprague-Dawley rat, plasma | oral, 30 mg/kg |  | half-life | 5 h
COc1cccc(OC)c1-c1cc(C(=O)NC2(C(=O)O)C3CC4CC(C3)CC2C4)nn1-c1ccc(C(=O)N(C)CCOCCOCCN(C)C(=O)[C@H](CCCCNC(=O)[C@H](CC(C)C)NC(=O)C2OC2C(=O)O)NC(=O)CN2CCN(CC(=O)[O-])CCN(CC(=O)[O-])CCN(CC(=O)[O-])CC2)cc1C(C)C.[177Lu+3] (mixture of isomers) |  | mouse, HT-29 xenograft | 24 h post injection, biodistribution | baseline: tumour over kidney uptake | tumour-to-kidney ratio | 0.33
CN1CCN(c2ccc(/C=C/c3cc(=O)cc(/C=C/c4ccc(N5CCN(C)CC5)cc4)o3)cc2)CC1 |  | acetonitrile/water 1:19 v/v | 298 K, aggregate nanoparticle suspension, together with: excitation 377 nm |  | fluorescence lifetime | 0.4 ns
